# Measurements from different studies.
# Parts stem from different laboratories: compare values within a part only. ± marks the error that the study gave. No end group written: not given here.
# Sequence of UniProt P08603 (whole entry, unmodified, looked up): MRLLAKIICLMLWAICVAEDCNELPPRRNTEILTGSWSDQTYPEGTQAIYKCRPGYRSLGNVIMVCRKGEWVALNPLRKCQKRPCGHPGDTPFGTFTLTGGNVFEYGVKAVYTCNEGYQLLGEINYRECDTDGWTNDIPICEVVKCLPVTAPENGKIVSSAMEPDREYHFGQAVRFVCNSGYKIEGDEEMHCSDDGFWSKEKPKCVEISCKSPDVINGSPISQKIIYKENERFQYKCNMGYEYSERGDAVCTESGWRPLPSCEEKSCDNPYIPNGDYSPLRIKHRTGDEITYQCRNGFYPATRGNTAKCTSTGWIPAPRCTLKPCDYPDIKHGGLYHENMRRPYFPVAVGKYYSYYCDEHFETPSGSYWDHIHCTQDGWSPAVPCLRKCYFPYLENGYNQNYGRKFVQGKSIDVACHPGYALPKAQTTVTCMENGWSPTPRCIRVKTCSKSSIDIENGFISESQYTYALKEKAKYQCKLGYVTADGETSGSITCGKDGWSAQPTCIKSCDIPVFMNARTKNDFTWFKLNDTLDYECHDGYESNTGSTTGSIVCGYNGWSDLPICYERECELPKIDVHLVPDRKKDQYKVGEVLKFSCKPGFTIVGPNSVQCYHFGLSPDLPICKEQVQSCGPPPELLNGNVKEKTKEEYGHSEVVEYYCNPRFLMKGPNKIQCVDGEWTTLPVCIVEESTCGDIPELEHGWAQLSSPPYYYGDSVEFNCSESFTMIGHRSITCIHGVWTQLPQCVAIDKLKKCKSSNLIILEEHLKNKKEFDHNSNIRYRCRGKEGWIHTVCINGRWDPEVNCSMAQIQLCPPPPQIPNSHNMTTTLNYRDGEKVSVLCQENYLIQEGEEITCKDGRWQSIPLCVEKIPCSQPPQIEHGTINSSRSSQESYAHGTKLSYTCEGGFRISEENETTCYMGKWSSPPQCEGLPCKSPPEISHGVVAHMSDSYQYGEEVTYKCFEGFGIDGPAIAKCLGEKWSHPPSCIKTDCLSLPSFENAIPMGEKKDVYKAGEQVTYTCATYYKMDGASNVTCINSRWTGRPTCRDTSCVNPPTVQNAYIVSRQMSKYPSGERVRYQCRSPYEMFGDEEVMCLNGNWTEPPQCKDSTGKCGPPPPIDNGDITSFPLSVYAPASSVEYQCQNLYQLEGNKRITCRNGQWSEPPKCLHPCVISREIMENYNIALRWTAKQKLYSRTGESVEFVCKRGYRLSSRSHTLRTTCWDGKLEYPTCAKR

# Set 1 — molecule type: peptide; cell line: tetramer-reactive CD8+ T cells
# Species: COVID-19 convalescent HLA-B*07:02 subjects
Molecule,number of clonotypes
HADQLTPTW,3
ELPDEFVVVTV,3
NATNVVIKV,0
STSAFVETV,0
APRITFGGP,1

# Single results of other studies
Molecule,target or system,test,test system,setting,quantity,result
Cy5-CVWSLQNTLFM (Cy5-labelled; sequence looked up),,"membrane binding, co-sedimentation","peptide, POPC cholesterol liposomes","40 µM, 10 min",liposome-bound peptide,58.4%
cbpA fragment (Streptococcus pneumoniae),"CFH 508-567 I545S (Homo sapiens, UniProt P08603)",ITC,,,ΔH,-12.8 ± 0.8 kcal/mol
ivermectin,Haemonchus contortus,larval migration,Weybridge susceptible L3,20 min,IC50,6.6 ± 0.2 nM
ivermectin,human adenovirus C5 wild type,Western blot,A549,"100 nM, 48 h post-infection","viral protein levels (E1A, DBP, pV, pVI)",decreased
GTCTTTAATAATTAAACTAGTGTCTTGACAGATGTAAACAACAGGTATAAAC (dsDNA),"niaR 1-174 K16A (Streptococcus mutans, UniProt Q8DVX8)",EMSA,"double-stranded DNA, one strand shown",,binding,binds

# Repeated from above (set 1):
Molecule,number of clonotypes
ELPDEFVVVTV,3
